{"data": "Published values from different studies", "note": "A part holds a random share of what one study measured. “And” joins repeats or separate records; there may be more than shown.", "UniProt P19801, sequence (whole entry, looked up)": "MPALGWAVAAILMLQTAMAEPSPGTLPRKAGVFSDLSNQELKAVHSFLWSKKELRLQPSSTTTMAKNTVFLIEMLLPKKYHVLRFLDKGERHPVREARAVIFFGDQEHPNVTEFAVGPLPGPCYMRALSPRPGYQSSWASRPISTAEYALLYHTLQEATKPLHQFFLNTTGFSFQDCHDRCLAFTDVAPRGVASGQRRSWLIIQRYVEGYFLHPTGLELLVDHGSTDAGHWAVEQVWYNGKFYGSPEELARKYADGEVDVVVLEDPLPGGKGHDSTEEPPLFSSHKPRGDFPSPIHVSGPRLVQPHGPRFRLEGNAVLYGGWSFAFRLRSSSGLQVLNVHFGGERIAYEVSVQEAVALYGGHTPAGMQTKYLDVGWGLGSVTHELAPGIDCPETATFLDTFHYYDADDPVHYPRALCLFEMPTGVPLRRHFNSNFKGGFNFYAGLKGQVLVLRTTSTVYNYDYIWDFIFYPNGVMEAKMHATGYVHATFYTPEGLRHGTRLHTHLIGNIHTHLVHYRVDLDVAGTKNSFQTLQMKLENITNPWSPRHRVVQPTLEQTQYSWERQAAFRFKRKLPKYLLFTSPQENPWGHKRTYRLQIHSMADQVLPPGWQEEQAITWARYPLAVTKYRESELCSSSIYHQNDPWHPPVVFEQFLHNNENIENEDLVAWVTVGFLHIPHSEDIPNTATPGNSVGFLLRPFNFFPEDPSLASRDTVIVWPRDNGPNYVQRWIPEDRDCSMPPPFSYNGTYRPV", "UniProt O08590, sequence (whole entry, looked up)": "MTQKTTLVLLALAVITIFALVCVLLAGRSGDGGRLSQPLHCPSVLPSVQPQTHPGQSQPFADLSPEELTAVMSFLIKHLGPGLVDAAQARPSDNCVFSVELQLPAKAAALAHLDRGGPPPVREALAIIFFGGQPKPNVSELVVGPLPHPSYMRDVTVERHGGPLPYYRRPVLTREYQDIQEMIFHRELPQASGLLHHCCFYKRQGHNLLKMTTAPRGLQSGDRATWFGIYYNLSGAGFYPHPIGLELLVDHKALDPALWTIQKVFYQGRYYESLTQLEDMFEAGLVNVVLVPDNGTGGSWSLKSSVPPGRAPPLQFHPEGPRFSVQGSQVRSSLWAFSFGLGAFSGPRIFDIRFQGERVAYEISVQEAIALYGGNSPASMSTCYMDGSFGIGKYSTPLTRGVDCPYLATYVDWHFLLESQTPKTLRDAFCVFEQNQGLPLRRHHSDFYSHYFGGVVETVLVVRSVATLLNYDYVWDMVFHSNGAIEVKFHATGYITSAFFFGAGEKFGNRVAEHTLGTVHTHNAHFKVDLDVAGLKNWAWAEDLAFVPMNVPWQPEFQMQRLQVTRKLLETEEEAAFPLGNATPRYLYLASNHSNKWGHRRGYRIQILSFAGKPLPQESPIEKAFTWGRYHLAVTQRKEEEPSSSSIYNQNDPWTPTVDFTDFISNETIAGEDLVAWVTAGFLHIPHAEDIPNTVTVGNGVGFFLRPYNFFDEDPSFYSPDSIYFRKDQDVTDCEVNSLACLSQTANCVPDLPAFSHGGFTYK", "UniProt P27338, sequence (whole entry, looked up)": "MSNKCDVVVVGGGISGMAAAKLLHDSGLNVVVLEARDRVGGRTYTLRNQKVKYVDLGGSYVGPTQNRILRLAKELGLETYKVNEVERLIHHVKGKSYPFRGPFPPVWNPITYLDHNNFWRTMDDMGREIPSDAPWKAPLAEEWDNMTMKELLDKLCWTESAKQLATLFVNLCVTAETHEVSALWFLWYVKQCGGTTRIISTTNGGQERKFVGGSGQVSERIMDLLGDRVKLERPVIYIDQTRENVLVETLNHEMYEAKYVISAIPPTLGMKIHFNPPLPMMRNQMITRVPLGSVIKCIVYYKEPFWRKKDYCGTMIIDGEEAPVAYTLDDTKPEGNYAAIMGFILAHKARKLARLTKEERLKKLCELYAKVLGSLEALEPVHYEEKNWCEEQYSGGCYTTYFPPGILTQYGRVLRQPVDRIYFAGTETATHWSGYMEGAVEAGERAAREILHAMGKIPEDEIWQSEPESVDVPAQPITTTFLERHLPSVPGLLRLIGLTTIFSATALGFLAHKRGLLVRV", "UniProt P21397, sequence (whole entry, looked up)": "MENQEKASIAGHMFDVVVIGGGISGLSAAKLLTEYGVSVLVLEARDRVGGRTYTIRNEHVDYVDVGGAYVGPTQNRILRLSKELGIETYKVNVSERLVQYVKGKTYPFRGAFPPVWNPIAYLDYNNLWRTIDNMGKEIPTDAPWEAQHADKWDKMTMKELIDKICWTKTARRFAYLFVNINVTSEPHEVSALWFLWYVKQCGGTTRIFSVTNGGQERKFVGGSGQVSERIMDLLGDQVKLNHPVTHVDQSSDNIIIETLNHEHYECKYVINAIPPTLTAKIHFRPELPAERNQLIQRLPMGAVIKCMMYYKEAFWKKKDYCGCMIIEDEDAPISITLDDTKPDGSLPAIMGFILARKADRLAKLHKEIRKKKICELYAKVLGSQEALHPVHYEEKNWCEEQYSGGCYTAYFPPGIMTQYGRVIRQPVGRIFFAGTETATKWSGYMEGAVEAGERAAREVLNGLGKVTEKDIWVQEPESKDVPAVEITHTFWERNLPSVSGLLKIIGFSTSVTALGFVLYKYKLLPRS"}
{"data": "Series 1", "SMILES": "COc1cc(C(=O)OCCCN2CCCN(CCCOC(=O)c3cc(OC)c(OC)c(OCc4ccc([N+](=O)[O-])cc4)c3)CC2)cc(OC)c1OC"}
{"test": "von Frey, 0.4 g filament", "system": "mouse, CFA inflammatory pain", "setting": "intravenous, dose not given, 1 h post-dose, first injection, day 1", "paw withdrawal frequency": "30% and 40% and 50%"}
{"test": "von Frey, 0.4 g filament", "system": "mouse, CFA inflammatory pain", "setting": "subcutaneous, 10 mg/kg, 24 h post-dose, first injection, day 1", "paw withdrawal frequency": "80% and 70% and 90%"}
{"test": "von Frey, 0.4 g filament", "system": "mouse, CFA inflammatory pain", "setting": "subcutaneous, 10 mg/kg, 1 h post-dose, first injection, day 1", "paw withdrawal frequency": "50% and 80% and 70% and 90%"}
{"test": "von Frey test", "system": "mouse, STZ diabetic neuropathy", "setting": "subcutaneous, 30 mg/kg, second of three doses, 1 h", "paw withdrawal frequency": "0.98 fraction of stimuli and 0.65 fraction of stimuli and 0.51 fraction of stimuli and 0.44 fraction of stimuli and 0.13 fraction of stimuli and 0.32 fraction of stimuli"}
{"test": "von Frey, 0.4 g filament", "system": "mouse, CFA inflammatory pain", "setting": "intravenous, dose not given, 3 h post-dose, first injection, day 1", "paw withdrawal frequency": "30% and 40% and 20%"}
{"test": "von Frey test", "system": "mouse, CFA inflammatory pain", "setting": "intrathecal, dose not given, 3 h, added: DPCPX 10 nmol intrathecal", "paw withdrawal frequency": "40% and 60% and 30% and 50%"}
{"test": "von Frey, 0.4 g filament", "system": "mouse, CFA inflammatory pain", "setting": "intravenous, dose not given, 1 h post-dose, second injection, day 3", "paw withdrawal frequency": "40% and 20% and 30%"}
{"test": "von Frey, 0.4 g filament", "system": "mouse, CFA inflammatory pain", "setting": "intravenous, dose not given, 24 h post-dose, third injection, day 5", "paw withdrawal frequency": "50% and 30% and 40%"}
{"test": "cold mechanical pain", "system": "mouse, spared nerve injury model", "setting": "intrathecal, 100 nmol, before third of 3 doses", "paw withdrawal frequency": "10% and 40% and 60% and 80%"}
{"data": "Series 2", "host": "female CD-1 mouse", "medium": "plasma", "route": "oral", "dose": "60 mg/kg"}
{"Structure (SMILES)": "Cc1ccc(O)c(C)c1-c1cnc2[nH]c(-c3cnc(N4CCC(CN5CCN(c6ccc(NC7CCC(=O)NC7=O)cc6F)CC5)CC4)nc3)cc2c1C#N (stereo not shown)", "half-life [h]": 2.7}
{"Structure (SMILES)": "Cc1ccc(O)c(C)c1-c1cnc2[nH]c(-c3cnc(N4CCC(CN5CCN(c6ccc7c(c6F)CN(C6CCC(=O)NC6=O)C7=O)CC5)CC4)nc3)cc2c1C#N (stereo not shown)", "half-life [h]": 2.3}
{"Structure (SMILES)": "Cc1ccc(O)c(C)c1-c1cnc2[nH]c(-c3cnc(N4CCC5(CC4)CC(N4CCN(c6ccc(NC7CCC(=O)NC7=O)cc6F)CC4)CO5)nc3)cc2c1C#N (stereo not shown)", "half-life [h]": 2.6}
{"Structure (SMILES)": "Cc1ccc(O)c(C)c1-c1cnc2[nH]c(-c3cnc(N4CCC(CN5CCN(c6ccc7c(c6)C(=O)N(C6CCC(=O)NC6=O)C7=O)CC5)CC4)nc3)cc2c1C#N (stereo not shown)", "half-life [h]": 4}
{"Structure (SMILES)": "Cc1ccc(O)c(C)c1-c1cnc2[nH]c(-c3cnc(N4CCC(CN5CCN(c6cc7c(cc6F)c(N6CCC(=O)NC6=O)nn7C)CC5)CC4)nc3)cc2c1C#N", "half-life [h]": 2.4}
{"Structure (SMILES)": "Cc1ccc(O)c(C)c1-c1cnc2[nH]c(-c3cnc(N4CCC(CCN5CCN(c6ccc(NC7CCC(=O)NC7=O)cc6F)CC5)CC4)nc3)cc2c1C#N (stereo not shown)", "half-life [h]": 3.1}
{"data": "Series 3", "Structure (SMILES)": "CS(=O)(=O)c1ccc(OC/C(=C/F)CN)cc1", "read-out": "enzyme activity", "mode": "inhibitor"}
{"target": "Amine oxidase [flavin-containing] B (MAOB, Homo sapiens, UniProt P27338)", "IC50 [µM]": "> 30"}
{"target": "Amine oxidase [flavin-containing] A (MAOA, Homo sapiens, UniProt P21397)", "IC50 [µM]": "> 30"}
{"target": "Amine oxidase [copper-containing] 3 (Rattus norvegicus, UniProt O08590)", "IC50 [µM]": 0.002}
{"target": "Diamine oxidase [copper-containing] (AOC1, Homo sapiens, UniProt P19801)", "IC50 [µM]": "> 30"}
{"data": "Series 4", "SMILES": "Cc1ncsc1-c1ccc(C(CO)NC(=O)C2CC(O)CN2C(=O)C(C(C)C)n2cc(-c3ccc(COc4c(-c5c(C)c(F)cc6[nH]ncc56)c(C5CC5)cc5c(N6CC7CC6CN7)nc(OC6CCOCC6)nc45)cc3)nn2)cc1 (stereo not shown)", "read-out": "KRAS-RAF interaction", "mode": "inhibitor", "technique": "TR-FRET", "KRAS with RAF": "GTPase KRas, with RAF (KRAS, Homo sapiens, UniProt P01116)", "KRAS/VHL with RAF": "KRAS/VHL, with RAF (Homo sapiens, UniProt P01116+P40337)"}
{"target": "KRAS with RAF", "setting": "1 µM, binary, added: SOS-mediated nucleotide exchange", "inhibition": "-0.247% and 3.02%"}
{"target": "KRAS/VHL with RAF", "setting": "30 nM, ternary, KRAS wild type, added: VCB complex", "inhibition": "5.45% and 2.85%"}
{"target": "KRAS with RAF", "setting": "3 µM, binary, added: SOS-mediated nucleotide exchange", "inhibition": "9.44% and 11%"}
{"target": "KRAS with RAF", "setting": "300 nM, binary, added: SOS-mediated nucleotide exchange", "inhibition": "-4.58% and -2.53%"}
{"target": "KRAS/VHL with RAF", "setting": "10 µM, ternary, KRAS wild type, added: VCB complex", "inhibition": "78.4% and 81.8%"}
{"target": "KRAS with RAF", "setting": "10 nM, binary, added: SOS-mediated nucleotide exchange", "inhibition": "-2.79% and -8.45%"}
{"note": "Repeated from above (series 1):"}
{"test": "cold mechanical pain", "system": "mouse, spared nerve injury model", "setting": "intrathecal, 100 nmol, before third of 3 doses", "paw withdrawal frequency": "10% and 40% and 60% and 80%"}
{"test": "von Frey, 0.4 g filament", "system": "mouse, CFA inflammatory pain", "setting": "subcutaneous, 10 mg/kg, 24 h post-dose, first injection, day 1", "paw withdrawal frequency": "80% and 70% and 90%"}
{"test": "von Frey, 0.4 g filament", "system": "mouse, CFA inflammatory pain", "setting": "intravenous, dose not given, 3 h post-dose, first injection, day 1", "paw withdrawal frequency": "30% and 40% and 20%"}
